Results collected from several papers.
Compare with care: the assays were run in different laboratories. Values joined by “and” are separate records of one study, mostly repeats; a detail may differ. ± marks the error that the study gave.
T1: ssDNA, aptamer; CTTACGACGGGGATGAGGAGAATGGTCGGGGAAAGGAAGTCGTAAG
Chain of UniProt Q16774 (whole entry, looked up): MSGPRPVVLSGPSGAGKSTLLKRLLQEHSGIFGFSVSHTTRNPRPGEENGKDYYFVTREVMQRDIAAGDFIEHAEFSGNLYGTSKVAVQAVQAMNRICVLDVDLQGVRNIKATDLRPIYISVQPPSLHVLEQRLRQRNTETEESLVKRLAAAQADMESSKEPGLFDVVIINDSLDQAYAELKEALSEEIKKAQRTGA
Chain of UniProt Q16853 (whole entry, looked up): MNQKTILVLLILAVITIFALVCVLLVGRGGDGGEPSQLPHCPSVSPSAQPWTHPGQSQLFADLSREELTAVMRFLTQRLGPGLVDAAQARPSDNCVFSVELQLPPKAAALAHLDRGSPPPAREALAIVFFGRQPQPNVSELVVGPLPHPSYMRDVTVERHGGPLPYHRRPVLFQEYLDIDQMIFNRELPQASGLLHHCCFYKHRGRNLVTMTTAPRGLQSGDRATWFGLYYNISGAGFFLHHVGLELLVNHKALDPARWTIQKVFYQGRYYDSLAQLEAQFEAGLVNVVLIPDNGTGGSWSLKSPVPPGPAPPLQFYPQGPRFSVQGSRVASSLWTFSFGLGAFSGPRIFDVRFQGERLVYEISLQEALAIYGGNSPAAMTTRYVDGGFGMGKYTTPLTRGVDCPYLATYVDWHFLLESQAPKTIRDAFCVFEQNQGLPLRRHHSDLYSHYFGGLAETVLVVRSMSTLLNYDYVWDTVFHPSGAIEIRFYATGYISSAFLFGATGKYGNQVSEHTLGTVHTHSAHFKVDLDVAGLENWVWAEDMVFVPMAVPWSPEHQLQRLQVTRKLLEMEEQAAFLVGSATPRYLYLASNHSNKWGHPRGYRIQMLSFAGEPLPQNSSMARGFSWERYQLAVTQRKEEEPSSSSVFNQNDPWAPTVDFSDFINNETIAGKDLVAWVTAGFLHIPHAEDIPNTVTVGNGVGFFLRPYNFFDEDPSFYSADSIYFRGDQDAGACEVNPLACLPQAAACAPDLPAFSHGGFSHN
Chain of UniProt Q96NY8 (whole entry, looked up): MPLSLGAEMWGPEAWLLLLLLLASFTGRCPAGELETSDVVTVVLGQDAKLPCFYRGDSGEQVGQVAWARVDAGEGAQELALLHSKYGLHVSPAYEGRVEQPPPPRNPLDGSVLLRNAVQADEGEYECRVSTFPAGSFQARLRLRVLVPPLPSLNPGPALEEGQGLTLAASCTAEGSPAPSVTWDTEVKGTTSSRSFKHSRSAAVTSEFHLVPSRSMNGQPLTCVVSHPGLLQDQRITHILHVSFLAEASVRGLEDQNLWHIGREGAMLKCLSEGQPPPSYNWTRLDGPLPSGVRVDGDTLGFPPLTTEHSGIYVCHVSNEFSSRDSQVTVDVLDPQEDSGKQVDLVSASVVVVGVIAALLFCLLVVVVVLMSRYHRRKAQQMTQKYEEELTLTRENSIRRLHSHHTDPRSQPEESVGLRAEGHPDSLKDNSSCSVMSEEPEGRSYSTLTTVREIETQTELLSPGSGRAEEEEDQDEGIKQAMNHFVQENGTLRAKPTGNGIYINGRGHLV
Chain of UniProt P29120 (whole entry, looked up): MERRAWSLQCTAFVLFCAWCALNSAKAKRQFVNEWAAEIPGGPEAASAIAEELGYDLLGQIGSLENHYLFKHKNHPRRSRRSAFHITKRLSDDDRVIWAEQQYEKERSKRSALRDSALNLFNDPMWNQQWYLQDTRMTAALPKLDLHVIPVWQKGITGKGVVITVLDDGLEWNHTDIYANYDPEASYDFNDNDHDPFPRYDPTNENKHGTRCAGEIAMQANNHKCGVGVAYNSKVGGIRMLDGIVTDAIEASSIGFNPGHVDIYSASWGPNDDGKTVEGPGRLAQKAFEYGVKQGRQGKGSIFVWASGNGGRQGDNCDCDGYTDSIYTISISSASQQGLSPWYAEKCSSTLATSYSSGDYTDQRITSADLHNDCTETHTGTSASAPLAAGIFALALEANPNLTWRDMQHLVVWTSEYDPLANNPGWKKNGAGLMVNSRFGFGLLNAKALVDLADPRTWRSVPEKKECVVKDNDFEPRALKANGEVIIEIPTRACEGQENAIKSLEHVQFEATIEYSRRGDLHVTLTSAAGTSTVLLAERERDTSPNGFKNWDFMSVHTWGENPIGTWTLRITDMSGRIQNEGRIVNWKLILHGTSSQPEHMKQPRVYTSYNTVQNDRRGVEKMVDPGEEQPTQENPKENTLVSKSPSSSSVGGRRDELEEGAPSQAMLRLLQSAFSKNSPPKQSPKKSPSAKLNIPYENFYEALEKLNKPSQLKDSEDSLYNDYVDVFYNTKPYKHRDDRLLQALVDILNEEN
Chain of UniProt Q13224 (whole entry, unmodified, looked up): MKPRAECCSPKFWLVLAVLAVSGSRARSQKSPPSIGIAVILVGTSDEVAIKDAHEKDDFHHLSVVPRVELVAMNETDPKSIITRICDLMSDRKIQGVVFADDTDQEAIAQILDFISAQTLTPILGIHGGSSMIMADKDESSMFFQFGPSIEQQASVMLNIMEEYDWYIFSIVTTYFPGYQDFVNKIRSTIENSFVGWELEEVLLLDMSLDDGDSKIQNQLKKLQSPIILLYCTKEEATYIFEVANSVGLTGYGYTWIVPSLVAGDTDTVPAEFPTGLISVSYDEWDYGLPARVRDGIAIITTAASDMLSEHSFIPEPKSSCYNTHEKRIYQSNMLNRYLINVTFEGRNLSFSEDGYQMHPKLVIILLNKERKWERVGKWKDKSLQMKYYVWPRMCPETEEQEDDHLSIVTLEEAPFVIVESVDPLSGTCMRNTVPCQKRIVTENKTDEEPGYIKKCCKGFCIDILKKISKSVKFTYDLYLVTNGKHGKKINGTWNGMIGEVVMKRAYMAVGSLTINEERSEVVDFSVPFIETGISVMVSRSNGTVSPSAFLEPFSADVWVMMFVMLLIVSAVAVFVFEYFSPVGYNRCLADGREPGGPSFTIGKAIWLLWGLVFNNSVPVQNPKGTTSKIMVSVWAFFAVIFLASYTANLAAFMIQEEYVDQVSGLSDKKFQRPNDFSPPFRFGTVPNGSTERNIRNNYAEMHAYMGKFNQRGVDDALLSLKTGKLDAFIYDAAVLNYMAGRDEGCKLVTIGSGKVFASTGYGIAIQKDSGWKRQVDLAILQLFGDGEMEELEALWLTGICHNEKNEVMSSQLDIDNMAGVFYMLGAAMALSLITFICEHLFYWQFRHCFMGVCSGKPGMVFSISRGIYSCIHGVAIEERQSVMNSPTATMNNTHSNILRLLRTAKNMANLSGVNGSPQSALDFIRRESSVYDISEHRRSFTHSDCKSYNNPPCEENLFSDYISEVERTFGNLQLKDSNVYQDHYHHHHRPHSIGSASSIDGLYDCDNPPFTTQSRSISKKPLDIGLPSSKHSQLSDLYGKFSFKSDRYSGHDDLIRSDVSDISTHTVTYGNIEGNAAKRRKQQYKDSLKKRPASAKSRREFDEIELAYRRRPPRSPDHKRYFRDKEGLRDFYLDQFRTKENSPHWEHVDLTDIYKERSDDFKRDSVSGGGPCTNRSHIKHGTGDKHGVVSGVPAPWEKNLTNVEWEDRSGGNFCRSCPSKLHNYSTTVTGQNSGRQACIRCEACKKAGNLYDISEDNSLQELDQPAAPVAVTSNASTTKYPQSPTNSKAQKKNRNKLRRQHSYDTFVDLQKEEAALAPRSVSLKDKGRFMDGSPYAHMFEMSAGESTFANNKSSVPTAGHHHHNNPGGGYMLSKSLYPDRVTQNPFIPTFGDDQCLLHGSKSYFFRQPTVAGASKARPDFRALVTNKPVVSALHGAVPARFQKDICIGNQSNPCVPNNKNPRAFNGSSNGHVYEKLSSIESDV
Chain of UniProt P19440 (whole entry, looked up): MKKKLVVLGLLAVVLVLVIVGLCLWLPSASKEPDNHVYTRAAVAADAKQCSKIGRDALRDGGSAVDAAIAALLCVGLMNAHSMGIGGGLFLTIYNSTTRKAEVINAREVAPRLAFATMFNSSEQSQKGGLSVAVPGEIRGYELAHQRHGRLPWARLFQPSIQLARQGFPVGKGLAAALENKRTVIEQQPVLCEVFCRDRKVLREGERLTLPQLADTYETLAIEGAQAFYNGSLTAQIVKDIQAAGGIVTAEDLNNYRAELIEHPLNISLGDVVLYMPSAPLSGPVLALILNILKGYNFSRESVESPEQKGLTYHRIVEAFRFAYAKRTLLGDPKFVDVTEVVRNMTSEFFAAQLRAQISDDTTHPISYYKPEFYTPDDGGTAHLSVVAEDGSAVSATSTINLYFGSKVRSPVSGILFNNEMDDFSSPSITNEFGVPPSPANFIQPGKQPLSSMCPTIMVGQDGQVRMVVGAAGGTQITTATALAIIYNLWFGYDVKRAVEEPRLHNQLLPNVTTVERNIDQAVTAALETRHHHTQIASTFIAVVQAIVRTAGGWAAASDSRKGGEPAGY
Chain of UniProt P22736 (whole entry, looked up): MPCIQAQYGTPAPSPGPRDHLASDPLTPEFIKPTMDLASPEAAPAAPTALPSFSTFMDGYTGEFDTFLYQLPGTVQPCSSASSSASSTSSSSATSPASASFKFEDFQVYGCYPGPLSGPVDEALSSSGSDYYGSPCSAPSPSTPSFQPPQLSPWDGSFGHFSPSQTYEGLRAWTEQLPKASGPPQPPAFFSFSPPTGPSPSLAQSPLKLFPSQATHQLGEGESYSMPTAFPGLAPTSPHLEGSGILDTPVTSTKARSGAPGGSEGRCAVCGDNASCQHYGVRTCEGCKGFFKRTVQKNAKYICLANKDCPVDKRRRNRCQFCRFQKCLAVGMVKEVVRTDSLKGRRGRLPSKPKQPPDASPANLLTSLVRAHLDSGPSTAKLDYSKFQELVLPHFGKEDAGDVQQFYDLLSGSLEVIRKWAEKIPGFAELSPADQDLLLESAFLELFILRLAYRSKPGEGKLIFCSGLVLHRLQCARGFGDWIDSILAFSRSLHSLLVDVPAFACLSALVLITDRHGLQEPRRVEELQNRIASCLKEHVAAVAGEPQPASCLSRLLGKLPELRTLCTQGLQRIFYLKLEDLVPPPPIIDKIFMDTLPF

SMILES | target or system | test | system | conditions | scale | endpoint | value
Nc1ccc(S(=O)(=O)Nc2nnc(Cc3ccc(Cl)c(Cl)c3)s2)cc1 | Glutathione hydrolase 1 proenzyme, without transmembrane domain (Homo sapiens, UniProt P19440) | GSH hydrolysis, uncompetitive inhibitor | – | 37 °C, binds gamma-glutamyl enzyme, with: GSH 5-20 µM | – | Kii | 905 ± 53 µM
C[C@H](CCC(C)(C)O)[C@H]1CC[C@H]2[C@@H]3CC=C4C[C@@](C)(O)CC[C@]4(C)[C@H]3CC[C@]12C | Glutamate NMDA receptor; GRIN1/GRIN2B (GRIN1/GRIN2B, Homo sapiens, UniProt Q05586+Q13224, L655Y) | positive allosteric modulator, two-electrode voltage clamp | Xenopus oocytes expressing GluN1-L655Y | 10 µM, 0.02% cremophor, with: 100 µM glutamate and glycine | reference: without compound | current response | 160 ± 4.6%
O=c1nc(SCc2cc(F)cc(C(F)(F)F)c2)nc(SCc2csc3ccc(Cl)cc23)[nH]1 | TOP2A (Homo sapiens, UniProt P11388) | decatenation | – | 7.8 µM, replicate 1 | – | decatenated DNA | 94.5%
C#CCCOC(=O)[C@]1(C)C=C(C(=O)OC(C)(C)C)C(=O)CC1 | MAPK8 (Homo sapiens, UniProt P45983) | D-peptide binding, inhibitor, FP peptide displacement | – | 0.7812 µM | lower is stronger displacement | fraction bound | 0.779
CCOc1c([C@H](C)n2nc(C)c3c(N)ncnc32)cc(Cl)c(F)c1[C@@H]1CNC(=O)C1 | – | – | patients, monotherapy | oral, 10 mg once daily, cycle 1 day 15 | – | half-life geometric mean | 9.78 h
CC(C)C[C@H](NC(=O)C[C@H](O)[C@H](CC(C)C)NC(=O)[C@H](Cc1c[nH]cn1)NC(=O)CNC(=O)[C@@H](NC(=O)[C@H](C)NC(=O)[C@H](Cc1c[nH]c2ccccc12)NC(=O)[C@H](CCC(N)=O)NC(=O)[C@@H](Cc1ccccc1)NC(=O)COCCOCCNC(=O)CCC(C(=O)O)N1CCN(CC(=O)O)CCN(CC(=O)O)CCN(CC(=O)O)CC1)C(C)C)C(N)=O (stereo partly shown) [lutetium-177 labelled] | – | – | female BALB/c nu/nu mice, liver | intravenous, 100 pmol, 2 h, with: PA 300 µg | – | tissue uptake | 0.21 ± 0.08 %ID/g
CC(=O)Nc1ccc(O)cc1 | BRD4 (Homo sapiens, UniProt O60885) | 19F NMR, measured: tyrosine 119 | – | 48 µM | reference: free protein | chemical shift change | 0.035 ppm
CCN1/C(=C/C(C)=O)Sc2ccc(F)cc21 | – | – | cynomolgus monkey | oral, 10 mg/kg, 1 h post-dose | – | mean blood pressure | 86 ± 5 mmHg
Cn1cc(-c2ccc(-c3cncc(Cl)c3N3CCC4(CCNC4=O)CC3)cc2)cn1 | COLO 205 | gene expression, microarray, measured: NFATC2 mRNA | – | concentration not given, 2 h | reference: untreated cells | log2 fold change | 2.92
Nc1ncnc2c1ncn2[C@@H]1O[C@H](COP(=O)(O)OP(=O)(O)O)[C@@H](O)[C@H]1O | T1, ssDNA, aptamer | ITC | – | – | – | Kd | 19.6 µM
NCc1cc2c(cc1F)C(=O)N(C1CCC(=O)NC1=O)C2 (stereo not shown) | AOC3 (Homo sapiens, UniProt Q16853) | substrate, LC-MS/MS | cirrhotic human liver lysate | 250.00 µM, 60 min, pH 7.4 | – | concentration | 21300 ng/mL and 20100 ng/mL
CC[C@H](CO)N(CCN(N=O)[C@H](CC)CO)N=O | Escherichia coli | mutagenicity, Ames plate incorporation | WP2 uvrA pKM101 | 5000 µg/plate, without S9, methanol | – | revertant colonies per plate | 135 ± 26
O=C(C=Cc1ccccc1)Nc1cccc(-c2ccnc(N3CCOCC3)c2)c1 | Nuclear receptor subfamily 4 group A member 1 (NR4A1, Homo sapiens, UniProt P22736) | SPR | – | 10.0 µM | – | binding response | 82.3 RU
[Cl][Fe]([Cl])[Cl] | Neuroendocrine convertase 1 (Homo sapiens, UniProt P29120) | – | – | concentration not given, 2 h, pH 6.0, with: pERTKR-AMC substrate | – | enzyme activity | no effect
CCCC[C@@H]1NC(=O)[C@H](Cc2ccc(O)cc2)NC(=O)[C@@H]2CCCN2C(=O)[C@H](CC(=O)O)NC(=O)[C@H](C)NC(=O)[C@H](Cc2ccccc2)NC(=O)[C@@H]2CSCCC(=O)N3CN(CN(C3)C(=O)CCSC[C@@H](C(=O)N[C@@H](C)C(N)=O)NC1=O)C(=O)CCSC[C@H](NC(C)=O)C(=O)N[C@@H](CC(C)(C)C)C(=O)N1CCC[C@H]1C(=O)N[C@@H](CCC(=O)O)C(=O)N[C@H](CCCCNC(=O)CCc1cn(CCOCCOCCCOCCOCCOCCOCCOCCOCCOCCOCCNC(=O)CCOCC(COCCC(=O)NCCOCCOCCOCCOCCOCCOCCOCCOCCOCCOCCn3cc(CCC(=O)NCCCC[C@H]4NC(=O)[C@H](CCC(=O)O)NC(=O)[C@@H]5CCCN5C(=O)[C@H](CC(C)(C)C)NC(=O)[C@@H](NC(C)=O)CSCCC(=O)N5CN6CN(C5)C(=O)CCSC[C@H](NC(=O)[C@H](Cc5ccc(O)cc5)NC(=O)[C@@H]5CCCN5C4=O)C(=O)N[C@@H](Cc4ccccc4)C(=O)N[C@@H](C)C(=O)N[C@@H](CC(=O)O)C(=O)N4CCC[C@H]4C(=O)N[C@@H](Cc4ccc(O)cc4)C(=O)N[C@@H](CCCC)C(=O)N[C@H](C(=O)N[C@@H](C)C(N)=O)CSCCC6=O)nn3)(COCCC(=O)NCCOCCOCCOCCOCCOCCOCCOCCOCCOCCOCCn3cc(CCC(=O)NCCCC[C@H]4NC(=O)[C@H](CCC(=O)O)NC(=O)[C@@H]5CCCN5C(=O)[C@H](CC(C)(C)C)NC(=O)[C@@H](NC(C)=O)CSCCC(=O)N5CN6CN(C5)C(=O)CCSC[C@H](NC(=O)[C@H](Cc5ccc(O)cc5)NC(=O)[C@@H]5CCCN5C4=O)C(=O)N[C@@H](Cc4ccccc4)C(=O)N[C@@H](C)C(=O)N[C@@H](CC(=O)O)C(=O)N4CCC[C@H]4C(=O)N[C@@H](Cc4ccc(O)cc4)C(=O)N[C@@H](CCCC)C(=O)N[C@H](C(=O)N[C@@H](C)C(N)=O)CSCCC6=O)nn3)COCCC(=O)NCCOCCOCCOCCOCCOCCOCCOCCOCCOCCOCCn3cc(CCC(=O)NCCC(=O)N[C@H]4CSCCC(=O)N5CN6CN(C5)C(=O)CCSC[C@H](NC(=O)[C@@H](CC(=O)O)NC(=O)[C@H](Cc5cccc7ccccc57)NC(=O)[C@@H]5CCCN5C4=O)C(=O)N[C@@H](CCSC)C(=O)N[C@@H](CCCCNC(=N)N)C(=O)N[C@@H](CC(=O)O)C(=O)N[C@@H](Cc4c[nH]c5ccccc45)C(=O)N[C@@H](CO)C(=O)N[C@@H]([C@@H](C)O)C(=O)N4CCC[C@H]4C(=O)N4C[C@H](O)C[C@H]4C(=O)N[C@@H](Cc4c[nH]c5ccccc45)C(=O)N[C@H](C(N)=O)CSCCC6=O)nn3)nn1)C(=O)N1CCC[C@H]1C(=O)N[C@@H](Cc1ccc(O)cc1)C(=O)N2 | Tumor necrosis factor receptor superfamily member 9/Nectin-4 (Homo sapiens, UniProt Q07011+Q96NY8) | reporter gene, agonist | HT-1376 coculture with reporter cells | – | reference: background | Emax | 51 fold
c1ccc(OC[C@@H]2CN(CCN3CCc4ccccc43)CCO2)cc1 | HTR2B (Homo sapiens, UniProt P41595) | radioligand binding | – | concentration not given, with: [3H]LSD | – | inhibition | 70.5%
CCNc1ccc([N+](=O)[O-])cc1-n1cnc(-c2ccc([N+](=O)[O-])cc2)c1 | Toll-like receptor 1/2 (Homo sapiens, UniProt O60603+Q15399) | reporter gene, agonist | HEK-Blue hTLR2 | concentration not given | – | maximal activation | ≥ 50%
O=C(O)c1ccc(Nc2ncc3c(n2)-c2ccc(Cl)cc2C(c2c(F)cccc2F)=NC3)cc1 | human Abl(T315I) | kinase activity | – | 1 µM | – | remaining activity | 74%
Nc1nc2c(ncn2[C@@H]2O[C@H](COP(=O)(O)O)[C@@H](O)[C@H]2O)c(=O)[nH]1 | GUK1 (Homo sapiens, UniProt Q16774) | enzyme activity, NADH-coupled | – | 500 µM | – | reaction rate | 38.7 s⁻¹ and 29.5 s⁻¹ and 39.7 s⁻¹

Some of these lines once more:
SMILES | target or system | test | system | conditions | scale | endpoint | value
CCCC[C@@H]1NC(=O)[C@H](Cc2ccc(O)cc2)NC(=O)[C@@H]2CCCN2C(=O)[C@H](CC(=O)O)NC(=O)[C@H](C)NC(=O)[C@H](Cc2ccccc2)NC(=O)[C@@H]2CSCCC(=O)N3CN(CN(C3)C(=O)CCSC[C@@H](C(=O)N[C@@H](C)C(N)=O)NC1=O)C(=O)CCSC[C@H](NC(C)=O)C(=O)N[C@@H](CC(C)(C)C)C(=O)N1CCC[C@H]1C(=O)N[C@@H](CCC(=O)O)C(=O)N[C@H](CCCCNC(=O)CCc1cn(CCOCCOCCCOCCOCCOCCOCCOCCOCCOCCOCCNC(=O)CCOCC(COCCC(=O)NCCOCCOCCOCCOCCOCCOCCOCCOCCOCCOCCn3cc(CCC(=O)NCCCC[C@H]4NC(=O)[C@H](CCC(=O)O)NC(=O)[C@@H]5CCCN5C(=O)[C@H](CC(C)(C)C)NC(=O)[C@@H](NC(C)=O)CSCCC(=O)N5CN6CN(C5)C(=O)CCSC[C@H](NC(=O)[C@H](Cc5ccc(O)cc5)NC(=O)[C@@H]5CCCN5C4=O)C(=O)N[C@@H](Cc4ccccc4)C(=O)N[C@@H](C)C(=O)N[C@@H](CC(=O)O)C(=O)N4CCC[C@H]4C(=O)N[C@@H](Cc4ccc(O)cc4)C(=O)N[C@@H](CCCC)C(=O)N[C@H](C(=O)N[C@@H](C)C(N)=O)CSCCC6=O)nn3)(COCCC(=O)NCCOCCOCCOCCOCCOCCOCCOCCOCCOCCOCCn3cc(CCC(=O)NCCCC[C@H]4NC(=O)[C@H](CCC(=O)O)NC(=O)[C@@H]5CCCN5C(=O)[C@H](CC(C)(C)C)NC(=O)[C@@H](NC(C)=O)CSCCC(=O)N5CN6CN(C5)C(=O)CCSC[C@H](NC(=O)[C@H](Cc5ccc(O)cc5)NC(=O)[C@@H]5CCCN5C4=O)C(=O)N[C@@H](Cc4ccccc4)C(=O)N[C@@H](C)C(=O)N[C@@H](CC(=O)O)C(=O)N4CCC[C@H]4C(=O)N[C@@H](Cc4ccc(O)cc4)C(=O)N[C@@H](CCCC)C(=O)N[C@H](C(=O)N[C@@H](C)C(N)=O)CSCCC6=O)nn3)COCCC(=O)NCCOCCOCCOCCOCCOCCOCCOCCOCCOCCOCCn3cc(CCC(=O)NCCC(=O)N[C@H]4CSCCC(=O)N5CN6CN(C5)C(=O)CCSC[C@H](NC(=O)[C@@H](CC(=O)O)NC(=O)[C@H](Cc5cccc7ccccc57)NC(=O)[C@@H]5CCCN5C4=O)C(=O)N[C@@H](CCSC)C(=O)N[C@@H](CCCCNC(=N)N)C(=O)N[C@@H](CC(=O)O)C(=O)N[C@@H](Cc4c[nH]c5ccccc45)C(=O)N[C@@H](CO)C(=O)N[C@@H]([C@@H](C)O)C(=O)N4CCC[C@H]4C(=O)N4C[C@H](O)C[C@H]4C(=O)N[C@@H](Cc4c[nH]c5ccccc45)C(=O)N[C@H](C(N)=O)CSCCC6=O)nn3)nn1)C(=O)N1CCC[C@H]1C(=O)N[C@@H](Cc1ccc(O)cc1)C(=O)N2 | Tumor necrosis factor receptor superfamily member 9/Nectin-4 (Homo sapiens, UniProt Q07011+Q96NY8) | reporter gene, agonist | HT-1376 coculture with reporter cells | – | reference: background | Emax | 51 fold
